Results gathered from unrelated publications.
Numbered parts are unrelated; each lists some results of a single study. Changes are numbered by the printed parent chain.

Study 1 — method: RNA Bind-n-Seq; molecule type: RNA; medium: in vitro; tested at: 365 nM; baseline: no-protein control; reading: higher = stronger binding
Target: RNA binding protein fox-1 homolog 2, RRM domain, GST-SBP tag (RBFOX2, Homo sapiens, UniProt O43251-10, residues 100-194)
Notes: natural RNA segment, single round, ends assumed
Shared flanks, not repeated: GGGAGUUCUACAGUCCGACGAUC … UGGAAUUCUCGGGUGCCAA
Target sequence (chain): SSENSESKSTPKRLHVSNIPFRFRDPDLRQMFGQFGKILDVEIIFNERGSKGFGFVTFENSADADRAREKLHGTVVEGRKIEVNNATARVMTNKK
Oligonucleotide	RBNS enrichment (R)
UGGCAAAUAGGAUGUGUGCCCAAAGAAUUAAAGCGAUGAGUGGCUGGUGAAGCGCUCUCUGUCCUGGCUGGUUUUUUGUCACCGCAAUCCACUGCCAAAGGCAGAAUUUA	0.595
AGUUAUUUAUUUGUUAACGCUGGCUGUGGAAACCCCAGUUCUUGGGGGGAGAAACAGGACUUUUUACAUAAAAUAGGAGCUGCAAAAGCAAAAAGAAUAUCUUCUAAAGA	0.471
UUUUAACAAAGACAAUACACACAUAAGCACAUUAAAACAGGAAUGCUAUGAUACUGUUUAGCAUUUGCUCUGCUGCCUAUCUUUCUCUGUUUUUAAUUAACAAUUGGAUU	1.02
UUUCCCCUUGAUGGAAAUUGACCAUACAAUUUCAUCCUCCUUCAGGGGAUCAAAAGGACGGAGUGGGGGGACAGAGACUCAGAUGAGGACAGAGUGGUUUCCAAUGUGUU	0.702
UAGAAUAAUUCUCAGCUUCCCUUGCUUUCUAUCUUGUGUGUAGUGAAAUAAUAGAGCGAGCACCCAUUCCAAAGCUUUAUUACCAGUGACGUUGUUGCAUGUUUGAAAUU	3
GUGGAAGGGUUGGGGGAAGAGCUCCAGCCUGUCUGCUCCCCAGCUCUGUAGUGGCAGACCAGCGUCACCUUUGAAGUAUACGUGAGAGAAAUAUAUUUACAAAUGCUUUA	1.32
UAACAGAAGCUUAGGGAACUAAGCAACAUAACAUAUCCAGCAAAAGGCAAGAUUCUAACCUAUACAGCCUGAUGCUAGAGCCUGUGAUGACCACUGUGCUUUGCUACCAA	0.274
AUACCAUAUAGUAACAGCAGUAAUUCUGUCUCAGUGUGCUUGCAAGGAAACUUUUCUUAUAAAGAGAAAAAAAAGUUACAAUUUACUACUGCCCUAGUUAGGACAGACAU	0.655

Study 2 — method: protein binding microarray; molecule type: double-stranded DNA, one strand shown; medium: in vitro; tested at: not given; baseline: not given; reading: higher = stronger binding
Target: Histone acetyltransferase KAT6A, winged helix 1, GST fusion (KAT6A, Homo sapiens, UniProt Q92794, residues 1-85)
Notes: 8-mer, flanks averaged, mean of 2 arrays, mostly near background
Construct (chain): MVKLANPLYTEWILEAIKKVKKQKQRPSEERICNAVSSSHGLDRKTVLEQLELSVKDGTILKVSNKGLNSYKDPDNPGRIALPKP
Oligonucleotide	E-score
AAAACGGA	0.0553
CATCCGCG	0.3
GGTAAAAA	0.0444
CACTTGAA	-0.182
CTTCAGAC	-0.0664
CTCCCAAG	-0.314
CCCGTGCC	0.305
CGCCCGAC	0.437
AAAGATTA	-0.0425
CATGATTA	-0.0277
GTCCGTGA	0.191
AACCTTAT	-0.08
CCGAGGTC	0.138
ATATAGCA	-0.144
CAGACCTC	0.00405
AGCTACTC	-0.139
AGGTATAG	-0.146
ATCTACAA	-0.141
AAGAGGAT	-0.196
GGCAAGCA	-0.0254
CAGATTGA	0.0451

Study 3 — method: RNA Bind-n-Seq; molecule type: RNA; medium: in vitro; tested at: 200 nM; notes: whole 134-nt RNA, ends assumed; added: 150 mM LiCl; baseline: input library; reading: higher = stronger binding; all molecules: 7-deaza-guanosine replaces G
Target: Ras GTPase-activating protein-binding protein 1, full length (G3BP1, Homo sapiens, UniProt Q13283)
Sequence of UniProt Q13283 (whole entry, looked up): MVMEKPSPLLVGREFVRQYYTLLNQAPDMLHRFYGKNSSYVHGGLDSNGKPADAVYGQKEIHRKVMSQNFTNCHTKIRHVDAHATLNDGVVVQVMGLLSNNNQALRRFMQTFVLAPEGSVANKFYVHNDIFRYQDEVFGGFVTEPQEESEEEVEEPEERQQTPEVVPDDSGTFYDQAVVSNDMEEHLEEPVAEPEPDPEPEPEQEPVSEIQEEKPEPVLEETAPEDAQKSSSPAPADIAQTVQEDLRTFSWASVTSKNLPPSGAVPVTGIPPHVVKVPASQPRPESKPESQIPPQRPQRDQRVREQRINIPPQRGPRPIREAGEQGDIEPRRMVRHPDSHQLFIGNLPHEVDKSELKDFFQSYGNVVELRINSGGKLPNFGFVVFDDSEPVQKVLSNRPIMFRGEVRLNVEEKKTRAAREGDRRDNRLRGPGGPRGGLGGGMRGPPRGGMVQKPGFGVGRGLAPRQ
Shared flanks, not repeated: GGGAGUUCUACAGUCCGACGAUC … UGGAAUUCUCGGGUGUCAAGG
Oligonucleotide	log2 enrichment
CACAGACAACACGCACCCACACAGACACAGAGGAAAGGGGUUGGGAUGGGGACAGGGUGCACAGCAGGGCGGGGUAGGACCCCAGCCCCU	0.492
GUCCUGUGCUACACAUCGUAUGUACCGAAUCGGGGUUUUUGGGGUUUUUGGUUUUUGGGAAAGUAUUAUGUUACGCCGUUCGGAUCUGCA	-0.81
ACCAUGCAGGUGGGCAUCUAUGGGAAGUGGGGCAAGGGGGGGAUAGGGAGGGGGGUAACACUUUGGGAACAGGUGGUCCCAGGUCGUUUC	0.147
AGUCCUGUGCUACACAUCGUAUGUACCGAAUCGGUUUUUUUGGAAAAAGGAAAAAGGAAAGUAUUAUGUUACGCCGUUCGGAUCUGCACU	-2.51
UGGCCCUGGUGGCAUGCGGGGAGGAAGAGGUGGCCUCAUGGAUCGUGGUGGUCCCGGUGGAAUGUUCAGAGGUGGCCGUGGUGAAGACAG	-0.414
CCUGUGCUACACAUCGUAUGUACCGAAUCGGGUUUUUUUGGUUUUUUUGGUUUUUUUGGGAAAGUAUUAUGUUACGCCGUUCGGAUCUGC	0.117
CUCAAGUCCUGUGCUACACAUCGUAUGUACCGAAUCGGGGUGGGGUGGGUGGGAAAGUAUUAUGUUACGCCGUUCGGAUCUGCACUUCCA	-1.08
CAAGUCCUGUGCUACACAUCGUAUGUACCGAAUCGGAAAGGAAAGGUUUUUUUGGAAAGUAUUAUGUUACGCCGUUCGGAUCUGCACUUC	-0.801

Study 4 — method: DHFR PCA, deep sequencing; medium: yeast; added: (+)-ABA 0.0091 µM; baseline: wild-type fitted maximum; reading: higher = stronger binding
Target: ABI1, truncated, D143A, DHFR fusion (Arabidopsis thaliana)
Notes: methotrexate growth selection, single substitutions
Parent: PYL1, truncated, DHFR fusion (Arabidopsis thaliana); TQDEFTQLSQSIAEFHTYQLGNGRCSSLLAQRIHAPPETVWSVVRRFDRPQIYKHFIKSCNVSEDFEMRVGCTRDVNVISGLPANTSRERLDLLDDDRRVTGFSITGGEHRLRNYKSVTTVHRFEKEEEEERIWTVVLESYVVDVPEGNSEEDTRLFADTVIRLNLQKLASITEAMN
Change	relative binding score [%]
F103G	-5.89
C25H	4.35
V70Y	-5.19
Q2N	29.1
D48Y	5.84
R46C	3.54
F15A	4.83
R163G	6.81
P146R	2.22
H122V	-6.12
P83R	16.4
A170F	-15.7

Excerpt of the above (study 4):
Change	relative binding score [%]
V70Y	-5.19
Q2N	29.1
D48Y	5.84
R46C	3.54
F15A	4.83
R163G	6.81
P146R	2.22
H122V	-6.12
